Experimental data from different studies.
Lines come from different studies, so protocols differ. Values joined by “and” are separate records of one study, mostly repeats; a detail may differ. Numbers after ± are the reported error.
HTR2C: 5-hydroxytryptamine receptor 2C (HTR2C, Homo sapiens, UniProt P28335)
HTR2A: 5-hydroxytryptamine receptor 2A (HTR2A, Homo sapiens, UniProt P28223)
Protein kinase C-like 1: Protein kinase C-like 1 (Candida albicans, UniProt P43057)

For Cc1ccc(C(=O)Nc2ccc3ccccc3c2)o1, “peak current ratio Ip2/Ip1” read 1.11 and 1.1 and 1.03 and 1.18 and 1.16 and 0.99 and 1.19 (Otop1 (Mus musculus, UniProt Q80VM9); proton current, whole-cell patch clamp; cells expressing mouse Otop1; 1 µM, pH 6.0).
COc1cc2oc(-c3ccc(O)cc3)cc(=O)c2c(O)c1[C@@H]1O[C@H](CO)[C@@H](O)[C@H](O)[C@H]1O[C@@H]1O[C@H](CO)[C@@H](O)[C@H](O)[C@H]1O gave an EC50 of 3.22 µM (ESR2 (Homo sapiens, UniProt Q92731); array formation, agonist; GFP-ERβ PRL-HeLa; 1 h).
With Clc1cncc(OC[C@H]2CN(CCN3CCc4ccccc43)CCO2)c1 the inhibition was -14.6% (HTR2C; radioligand binding; concentration not given, with: [3H]mesulergine).
Nc1ncnc2c1ncn2[C@@H]1O[C@H](COP(=O)(O)CP(=O)(O)OP(=O)(O)O)[C@@H](O)[C@H]1O gave a calcium influx of 0% and 8.62% (P2X purinoceptor 1 (P2RX1, Homo sapiens, UniProt P51575, E282A); calcium influx; 10 nM; baseline: ionomycin response).
With CCCCCC(O)C(CC=O)SC[C@H](NC(C)=O)C(=O)O (stereo partly shown) the Km was 200 µM (N-acyl-aromatic-L-amino acid amidohydrolase (carboxylate-forming) (Acy3, Mus musculus, UniProt Q91XE4); enzyme activity, substrate, fluorescamine fluorescence; without Co2+).
Under “remaining kinase activity”, COCCNc1nc2ccc(C#CC3(O)CCCCC3)cc2n1-c1ccnc(N)n1 is recorded as 23.6% (FER (Homo sapiens, UniProt P16591); enzyme activity, inhibitor, Z'-LYTE; 1 µM; baseline: no-inhibitor control).
O=S(=O)(O)SSS(=O)(=O)O has a thermal shift of 14.6 °C (Uncharacterized protein (Pelagibacter ubique, UniProt Q4FKX4); differential scanning fluorimetry; Candidatus Pelagibacter ubique; in-house screen).
With CC(NC(=O)CCCc1ccc2ccc3cccc4ccc1c2c34)C(=O)NO (stereo not shown) the binding stoichiometry was 0.8 (HDAC8 (Homo sapiens, UniProt Q9BY41); ITC; Tris-HCl buffer; concentration not given, 288 K).
Cc1cc(C)nc(NC(=S)N2CCN(Cc3ccc(C(F)(F)F)cc3)CC2)c1: kinase activity “no effect” (MAPK12 (Homo sapiens, UniProt P53778); inhibitor, ADP-Glo; concentration not given).
Under “relative deuterium uptake”, CCCC[C@H](NC(C)=O)C(=O)N[C@@H](CO)C(=O)N[C@H](C(=O)N1CCC[C@H]1C(=O)N[C@@H](C)C(=O)N[C@@H](CCCNC(=N)N)C(=O)N[C@@H](CCCNC(=N)N)C(=O)N[C@@H](CCCNC(=N)N)C(=O)N[C@@H](CC(C)C)C(=O)N[C@@H](CCCC)C(=O)N[C@@H](CCCNC(=N)N)C(=O)N[C@@H](CC(=O)O)C(=O)N[C@@H](Cc1ccccc1)C(=O)N[C@@H](CCCCN)C(=O)N[C@@H](CCCNC(=N)N)C(=O)N[C@@H](CC(C)C)C(=O)N[C@@H](CCC(N)=O)C(N)=O)[C@@H](C)O is recorded as 14.3 Da and 14.2 Da (UBA1 (Homo sapiens, UniProt P22314); HDX-MS; 10 s, peptide alone without UBE1; baseline: undeuterated peptide).
Cc1cc(Cl)cc(C)c1OCC(=O)NC(C)C: “normalised transport activity” 0.934 and 0.84 and 0.91 and 0.921 (SLC6A19 (Homo sapiens, UniProt Q695T7); membrane potential, FLIPR membrane potential; CHO-BC cells; concentration not given, first screen; baseline: uninhibited control).
C[C@H](O)c1ccc(NS(=O)(=O)c2ccc(OCC3CCC3)c(Cl)c2)c2nn(C)cc12 has a Km of 68 µM (17-beta-hydroxysteroid dehydrogenase 13 (Homo sapiens, UniProt Q7Z5P4); substrate, NADH fluorescence).
O=[N+]([O-])c1ccc(O[C@@H]2O[C@H](CO)[C@@H](O)[C@H](O)[C@H]2O)cc1 has a Km of 570 ± 80 µM (bglA (Thermotoga maritima, UniProt Q08638); hydrolysis, substrate; pH 6.8, 37 °C).
Under “heat capacity change (ΔCp)”, CC[C@H](C)[C@H](NC(=O)[C@H](CCCNC(=N)N)NC(=O)[C@H](Cc1c[nH]cn1)NC(=O)[C@H](CCCNC(=N)N)NC(=O)[C@H](CC(=O)O)NC(=O)[C@H](CC(=O)O)NC(=O)[C@@H](NC(=O)[C@H](CC(=O)O)NC(=O)[C@@H]1CCCN1C(=O)[C@@H](N)CC(C)C)[C@@H](C)O)C(=O)N[C@@H](CCC(=O)O)C(=O)N[C@@H](CCC(=O)O)C(=O)N[C@@H](CCCCN)C(=O)N[C@@H](CCCNC(=N)N)C(=O)N[C@@H](CCCCN)C(=O)N[C@@H](CCCNC(=N)N)C(=O)N[C@H](C(=O)N[C@@H](Cc1ccc(O)cc1)C(=O)N[C@@H](CCC(=O)O)C(=O)N[C@H](C(=O)N[C@@H](Cc1ccccc1)C(=O)N[C@@H](CCCCN)C(=O)N[C@@H](CO)C(=O)N[C@H](C(=O)N[C@@H](CCSC)C(=O)N[C@@H](CCCCN)C(=O)N[C@@H](CCCCN)C(=O)N[C@@H](CO)C(=O)N1CCC[C@H]1C(=O)N[C@@H](Cc1ccccc1)C(=O)N[C@@H](CC(N)=O)C(=O)NCC(=O)N1CCC[C@H]1C(=O)O)[C@@H](C)CC)[C@@H](C)O)[C@@H](C)O is recorded as -0.4 kcal/(mol·K) (IκBα (67-287); binding, isothermal titration calorimetry; concentration not given, pH 7.5, range over 294 to 303 K).
With O=C(O)c1ccc(Nc2ncc3c(n2)-c2ccc(Cl)cc2C(c2c(F)cccc2F)=NC3)cc1 the remaining activity was 83% (AMPK(r); kinase activity; 1 µM).
COc1cc2c(cc1OC)C(=O)N(CCCCN1CCN(c3ccccc3OC)CC1)C2 gave an inhibition of 91.3% (HTR2C; radioligand binding; concentration not given, with: [3H]mesulergine).
The normalized current of Nc1ncnc2c1ncn2[C@@H]1O[C@H](COP(=O)(O)OP(=O)(O)OP(=O)(O)O)[C@@H](O)[C@H]1O is reported as 0.963 and 0.952 and 0.988 (P2X purinoceptor 7 (P2rx7, Rattus norvegicus, UniProt Q64663, I214A/Q143A/R125A); ion current, agonist, two-electrode voltage clamp; Xenopus oocytes; 2700 µM).
The inhibition of O=C(CN1CCO[C@H](COc2cccnc2)C1)N1CCc2ccccc21 is reported as -7% (HTR2A; radioligand binding; concentration not given, with: [3H]ketanserin).
For COCCOC(=O)C1=C(C)NC(C)=C(C(=O)OC(C)C)C1c1cccc([N+](=O)[O-])c1 (stereo not shown), the inhibition was -30.7% (Nedd8-cullin1 interaction; neddylation, AlphaScreen; 100 µM).
With N[C@@H](CCC(=O)O)C(=O)O the reversal potential was -27.5 ± 1.1 mV (uncharacterized protein (Ixodes scapularis, UniProt A0A0N9E2I2); two-electrode voltage clamp; Xenopus oocytes; extracellular Cl- 107.6 mM).
For NC/C(=C\F)COc1cccc(Cn2c(=S)[nH]c(=O)c3[nH]cnc32)c1, “LDL lipid peroxidation” read 93.8% and 106% and 84.5% and 79.2% (Myeloperoxidase (MPO, Homo sapiens, UniProt P05164); inhibitor, cholesteryl ester hydroperoxide; 0.0021 µM; baseline: control).
c1ccc(C(NCc2cccnc2)(c2ccccc2)c2ccccc2)cc1 gave an apparent koff of 14 s⁻¹ (KCNQ1 (Homo sapiens, UniProt P51787); fractional inhibition kinetics; y-intercept of rate vs concentration).
CC1Cc2ccccc2N1C(=O)NCCCCN(C)[C@@H]1Cc2cccc3[nH]c(=O)n(c23)C1 (mixture of isomers) gave a Hill slope of -0.7 ± 0.1 (HTR2A; binding; with: [3H]5-HT).
For [Cl-].[Na+], the reaction velocity was 0.017 µM/s and -0.00707 µM/s and -0.000699 µM/s (GUK1 (Homo sapiens, UniProt Q16774); enzyme activity, NADH-coupled; 150 mM).
Cc1ncccc1OC[C@@H]1CN(CCN2CCc3ccccc32)CCO1 has an inhibition of 1.7% (HTR2C; radioligand binding; concentration not given, with: [3H]mesulergine).
For CC[C@@H]1[C@H](F)C(=O)N[C@@H]1COc1nccc2cc(C(N)=O)c(OC)cc12, the inhibition was 9.7% (GRK2 (Homo sapiens, UniProt P25098); ATP-site probe binding, ActivX profiling, measured: BARK1; THP-1 cell lysate; 0.2 mM, Lys2 site).
For Nc1ncnc2c1ncn2[C@@H]1O[C@H](CO[P@](=O)(O)O[P@](=O)(O)O[P@@](=O)(O)S)[C@@H](O)[C@H]1O, the ΔG was -5.26 kcal/mol (GUK1 (Homo sapiens, UniProt Q16774, K17A); binding, ITC).
For O=c1nc(SCc2cc(F)cc(C(F)(F)F)c2)nc(SCc2csc3ccc(Cl)cc23)[nH]1, the decatenated DNA was 100% (TOP2B (Homo sapiens, UniProt Q02880); decatenation; 1.95 µM, replicate 2).
c1ccc(-c2n[nH]cc2-c2ccnc3ccccc23)nc1 — result for “log2 fold change”: 1.32 (Protein kinase C-like 1; kinase binding, competitor, MIB/MS competition, measured: PKC1; Candida albicans cell lysate; 1 µM; baseline: DMSO).
For O=C(O)C1CCCNC1 (stereo not shown), “normalised MST signal” read 0.112 (SLC6A6 (Homo sapiens, UniProt P31641, Y138A); binding, microscale thermophoresis; 244 nM, room temperature, with: 50 nM labelled protein; higher = more binding).
Under “binding Gibbs energy”, Nc1ccc2cc3ccc(N)cc3nc2c1 is recorded as -5.593 ± 0.0239 kcal/mol (Chymotrypsinogen A, activated (alpha-chymotrypsin) (Bos taurus, UniProt P00766); isothermal titration calorimetry; 25 °C, with: 0.5 M TMAO).
For c1coc(-c2n[nH]cc2-c2ccnc3ccccc23)c1, “log2 fold change” read -0.27 (Protein kinase C-like 1; kinase binding, MIB/MS competition; Candida albicans lysate; 1 µM; baseline: DMSO, negative = stronger binding).
For c1cncc(OC[C@H]2CN(CCN3CCc4ccccc43)CCO2)c1, the inhibition was 24.2% (HTR2C; radioligand binding; concentration not given, with: [3H]mesulergine).
The current density of Nc1ccc(C(=O)O)cc1 is reported as -25.2 pA/pF and -17.3 pA/pF and -11.6 pA/pF and -41.2 pA/pF and -7.47 pA/pF and -22.9 pA/pF (BEST1, with wild-type BEST1 (Homo sapiens, UniProt O76090, A10T); whole-cell patch clamp; HEK293 co-expressing WT and A10T mutant; concentration not given, membrane potential -80 mV).
Under “log fold enrichment”, CC1CCCN(C(=O)c2cc3ncccn3n2)C1 (stereo not shown) is recorded as 0.135 (Baculoviral IAP repeat-containing protein 3, BIR1 domain (BIRC3, Homo sapiens, UniProt Q13489); binding, affinity selection mass spectrometry; baseline: other proteins in batch).
CC1=C(/C=C/C(C)=C/C=C/C(C)=C/C=O)C(C)(C)CCC1 gave a relative kon of 0.071 ± 0.004 (Rhodopsin, A269F/S144C (RHO, Bos taurus, UniProt P02699, A269F/S144F); retinal entry, Alexa488 FRET; lipid bicelles; 28 °C, A269F mutant; baseline: wild-type rhodopsin).
Cc1[nH]c(=O)c(C#N)cc1-c1ccncc1 gave an inhibition of 2.1% (Nedd8-cullin1 interaction; neddylation, AlphaScreen; 100 µM).
With CN1CCN(c2cc(-c3ccncc3)c(-c3ccc4ccccc4c3)nn2)CC1 the activation was -1% (LPAR1 (Homo sapiens, UniProt Q92633); agonist, FLIPR; 12.5 µM).
With O=C1Nc2c(ccc(Cl)c2Cl)C1=NO the Hill coefficient was 1.3 (KCNN4/CALM1 (Homo sapiens, UniProt O15554+P0DP23); activator, whole-cell patch clamp; HEK293; with: free calcium 250 nM).
For Cc1cccc(N2CC(C(=O)O)CC2=O)c1 (stereo not shown), “log fold enrichment” read -0.000956 (WD repeat-containing protein 55 (WDR55, Homo sapiens, UniProt Q9H6Y2); binding, affinity selection mass spectrometry; baseline: other proteins in batch).
For [H]/N=C(/N)NCC(=O)O, “normalised MST signal” read -0.00487 (SLC6A6 (Homo sapiens, UniProt P31641, G62A); binding, microscale thermophoresis; 977 nM, room temperature, with: 50 nM labelled protein; higher = more binding).
O=c1nc(SCc2cc(F)cc(C(F)(F)F)c2)nc(SCc2ccc3nc(Cl)ccc3c2)[nH]1 has a linear DNA of 0% (TOP2A (Homo sapiens, UniProt P11388); DNA cleavage; 31.25 µM, replicate 1).
OCc1ccc(-c2ccc(-c3ccc(CO)s3)o2)s1: “relative sulfonation activity” under 2 fold (SULT1A1 (Homo sapiens, UniProt P50225); substrate, colorimetric; 100 µM; baseline: benzyl alcohol).

Some of these lines once more:
Nc1ncnc2c1ncn2[C@@H]1O[C@H](COP(=O)(O)CP(=O)(O)OP(=O)(O)O)[C@@H](O)[C@H]1O gave a calcium influx of 0% and 8.62% (P2X purinoceptor 1 (P2RX1, Homo sapiens, UniProt P51575, E282A); calcium influx; 10 nM; baseline: ionomycin response).
For Cc1ccc(C(=O)Nc2ccc3ccccc3c2)o1, “peak current ratio Ip2/Ip1” read 1.11 and 1.1 and 1.03 and 1.18 and 1.16 and 0.99 and 1.19 (Otop1 (Mus musculus, UniProt Q80VM9); proton current, whole-cell patch clamp; cells expressing mouse Otop1; 1 µM, pH 6.0).
Cc1cc(Cl)cc(C)c1OCC(=O)NC(C)C: “normalised transport activity” 0.934 and 0.84 and 0.91 and 0.921 (SLC6A19 (Homo sapiens, UniProt Q695T7); membrane potential, FLIPR membrane potential; CHO-BC cells; concentration not given, first screen; baseline: uninhibited control).
